Assay results of several laboratories.
Parts stem from different laboratories: compare values within a part only.
Chain of UniProt P19525 (whole entry, looked up): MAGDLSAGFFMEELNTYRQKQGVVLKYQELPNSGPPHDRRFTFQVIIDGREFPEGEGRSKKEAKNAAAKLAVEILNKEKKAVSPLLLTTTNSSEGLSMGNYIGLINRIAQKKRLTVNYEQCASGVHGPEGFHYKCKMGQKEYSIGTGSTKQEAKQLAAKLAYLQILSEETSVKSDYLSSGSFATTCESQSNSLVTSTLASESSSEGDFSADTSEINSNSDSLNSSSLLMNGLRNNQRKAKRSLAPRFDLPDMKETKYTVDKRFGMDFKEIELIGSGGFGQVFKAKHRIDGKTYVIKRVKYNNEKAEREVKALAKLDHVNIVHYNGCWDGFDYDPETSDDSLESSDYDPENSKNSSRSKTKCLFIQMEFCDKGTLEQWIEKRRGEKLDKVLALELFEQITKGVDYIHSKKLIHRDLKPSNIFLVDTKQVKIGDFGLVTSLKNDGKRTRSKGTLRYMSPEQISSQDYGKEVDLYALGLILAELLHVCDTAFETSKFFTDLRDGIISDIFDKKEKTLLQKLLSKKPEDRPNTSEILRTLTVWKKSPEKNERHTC
Chain of UniProt Q96L34 (whole entry, looked up): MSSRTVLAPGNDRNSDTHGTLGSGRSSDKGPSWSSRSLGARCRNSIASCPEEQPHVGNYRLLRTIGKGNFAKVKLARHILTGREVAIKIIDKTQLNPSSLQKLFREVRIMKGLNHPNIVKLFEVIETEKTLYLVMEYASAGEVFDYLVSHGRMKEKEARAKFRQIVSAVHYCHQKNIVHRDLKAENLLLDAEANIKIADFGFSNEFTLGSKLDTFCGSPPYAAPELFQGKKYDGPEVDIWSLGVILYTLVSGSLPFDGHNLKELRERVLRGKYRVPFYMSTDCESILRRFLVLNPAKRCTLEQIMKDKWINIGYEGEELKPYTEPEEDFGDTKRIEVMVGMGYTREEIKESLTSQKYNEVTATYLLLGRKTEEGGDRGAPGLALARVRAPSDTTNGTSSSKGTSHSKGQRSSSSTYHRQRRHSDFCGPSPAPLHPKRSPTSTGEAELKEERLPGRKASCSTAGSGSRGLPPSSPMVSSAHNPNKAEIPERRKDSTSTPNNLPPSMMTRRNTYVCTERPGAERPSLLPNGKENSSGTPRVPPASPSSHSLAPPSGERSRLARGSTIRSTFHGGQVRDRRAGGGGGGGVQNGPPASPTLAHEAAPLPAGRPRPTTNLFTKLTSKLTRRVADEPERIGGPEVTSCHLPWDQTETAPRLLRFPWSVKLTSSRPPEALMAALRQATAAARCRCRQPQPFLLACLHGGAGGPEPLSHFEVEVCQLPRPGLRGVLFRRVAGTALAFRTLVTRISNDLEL
Chain of UniProt Q8N568 (whole entry, looked up): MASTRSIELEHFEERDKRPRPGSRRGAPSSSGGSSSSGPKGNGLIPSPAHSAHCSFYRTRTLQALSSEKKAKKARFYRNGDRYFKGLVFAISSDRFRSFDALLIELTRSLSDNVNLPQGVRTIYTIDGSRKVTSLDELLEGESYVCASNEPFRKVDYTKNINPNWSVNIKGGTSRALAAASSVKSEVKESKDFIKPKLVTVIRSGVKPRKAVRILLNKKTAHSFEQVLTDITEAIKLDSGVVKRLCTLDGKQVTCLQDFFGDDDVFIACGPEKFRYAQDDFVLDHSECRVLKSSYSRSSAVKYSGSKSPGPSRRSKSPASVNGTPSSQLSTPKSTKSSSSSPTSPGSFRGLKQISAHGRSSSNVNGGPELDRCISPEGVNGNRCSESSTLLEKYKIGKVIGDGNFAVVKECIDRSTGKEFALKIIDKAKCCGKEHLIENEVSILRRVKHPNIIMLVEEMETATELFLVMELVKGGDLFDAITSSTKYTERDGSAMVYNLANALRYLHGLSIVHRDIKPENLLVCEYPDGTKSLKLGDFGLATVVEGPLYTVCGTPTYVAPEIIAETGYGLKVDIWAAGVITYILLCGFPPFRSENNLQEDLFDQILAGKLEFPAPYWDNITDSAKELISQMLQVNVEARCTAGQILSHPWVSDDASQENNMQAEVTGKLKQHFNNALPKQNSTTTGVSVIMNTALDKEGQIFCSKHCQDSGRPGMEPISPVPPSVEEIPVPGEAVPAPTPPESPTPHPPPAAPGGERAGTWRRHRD
Chain of UniProt P08069 (whole entry, looked up): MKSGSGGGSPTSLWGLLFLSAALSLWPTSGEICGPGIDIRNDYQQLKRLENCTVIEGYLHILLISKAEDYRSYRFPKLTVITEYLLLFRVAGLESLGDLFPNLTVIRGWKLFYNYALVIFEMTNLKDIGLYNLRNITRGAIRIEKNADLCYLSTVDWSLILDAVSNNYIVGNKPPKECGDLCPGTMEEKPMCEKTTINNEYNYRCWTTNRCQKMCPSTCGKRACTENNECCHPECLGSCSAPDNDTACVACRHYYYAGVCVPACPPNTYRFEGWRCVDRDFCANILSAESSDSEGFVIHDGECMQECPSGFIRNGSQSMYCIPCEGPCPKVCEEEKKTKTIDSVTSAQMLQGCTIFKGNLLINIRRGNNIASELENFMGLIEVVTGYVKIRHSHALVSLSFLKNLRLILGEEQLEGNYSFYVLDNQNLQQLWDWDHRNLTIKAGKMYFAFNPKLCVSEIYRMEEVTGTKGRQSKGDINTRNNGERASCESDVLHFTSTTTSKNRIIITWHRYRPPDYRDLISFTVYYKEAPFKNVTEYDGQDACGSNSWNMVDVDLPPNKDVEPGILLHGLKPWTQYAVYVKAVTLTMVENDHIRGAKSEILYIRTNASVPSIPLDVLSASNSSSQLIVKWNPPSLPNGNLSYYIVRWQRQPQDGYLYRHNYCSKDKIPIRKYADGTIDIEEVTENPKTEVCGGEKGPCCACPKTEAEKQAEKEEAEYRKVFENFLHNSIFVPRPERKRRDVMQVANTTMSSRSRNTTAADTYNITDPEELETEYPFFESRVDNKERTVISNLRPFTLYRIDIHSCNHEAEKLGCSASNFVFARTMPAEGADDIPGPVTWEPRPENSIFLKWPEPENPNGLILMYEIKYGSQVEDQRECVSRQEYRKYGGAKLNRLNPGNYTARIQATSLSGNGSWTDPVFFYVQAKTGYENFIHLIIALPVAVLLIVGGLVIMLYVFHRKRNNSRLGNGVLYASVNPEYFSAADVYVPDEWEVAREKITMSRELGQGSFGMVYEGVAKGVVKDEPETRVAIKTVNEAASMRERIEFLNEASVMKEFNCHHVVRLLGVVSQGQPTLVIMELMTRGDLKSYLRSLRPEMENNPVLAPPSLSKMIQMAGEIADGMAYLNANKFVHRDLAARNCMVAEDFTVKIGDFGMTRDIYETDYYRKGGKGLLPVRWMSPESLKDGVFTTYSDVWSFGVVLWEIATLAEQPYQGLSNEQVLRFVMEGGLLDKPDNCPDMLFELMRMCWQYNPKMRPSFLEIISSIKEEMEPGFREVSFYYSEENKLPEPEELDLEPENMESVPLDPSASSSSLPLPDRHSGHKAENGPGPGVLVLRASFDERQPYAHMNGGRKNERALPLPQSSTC
Chain of UniProt P31751 (whole entry, looked up): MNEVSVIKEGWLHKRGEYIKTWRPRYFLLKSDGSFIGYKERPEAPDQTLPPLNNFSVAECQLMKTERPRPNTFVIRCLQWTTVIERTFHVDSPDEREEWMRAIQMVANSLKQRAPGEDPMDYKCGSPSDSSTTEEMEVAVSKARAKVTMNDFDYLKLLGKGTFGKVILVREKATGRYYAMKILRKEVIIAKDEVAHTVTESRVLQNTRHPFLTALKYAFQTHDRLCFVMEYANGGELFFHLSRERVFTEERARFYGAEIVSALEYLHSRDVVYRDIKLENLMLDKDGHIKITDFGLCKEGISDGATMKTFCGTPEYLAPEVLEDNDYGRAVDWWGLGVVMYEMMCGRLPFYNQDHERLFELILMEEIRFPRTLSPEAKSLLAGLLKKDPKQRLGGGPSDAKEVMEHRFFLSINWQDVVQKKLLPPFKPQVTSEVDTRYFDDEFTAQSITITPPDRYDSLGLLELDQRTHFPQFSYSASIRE
Chain of UniProt Q6P2M8 (whole entry, looked up): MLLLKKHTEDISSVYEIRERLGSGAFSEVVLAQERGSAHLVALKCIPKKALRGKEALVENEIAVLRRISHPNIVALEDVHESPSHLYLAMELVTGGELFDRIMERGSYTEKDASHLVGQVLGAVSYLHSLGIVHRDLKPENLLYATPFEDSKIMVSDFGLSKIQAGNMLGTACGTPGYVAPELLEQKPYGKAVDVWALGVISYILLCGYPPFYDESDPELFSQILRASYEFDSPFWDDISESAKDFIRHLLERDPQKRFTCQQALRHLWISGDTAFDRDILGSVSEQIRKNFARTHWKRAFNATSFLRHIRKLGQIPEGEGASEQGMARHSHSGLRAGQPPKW

Series 1
Target: Centromere-binding protein 1, full length, N-terminal tag (CBF1, Saccharomyces cerevisiae, UniProt P17106, residues 1-351)
Chain of UniProt P17106 (whole entry, looked up): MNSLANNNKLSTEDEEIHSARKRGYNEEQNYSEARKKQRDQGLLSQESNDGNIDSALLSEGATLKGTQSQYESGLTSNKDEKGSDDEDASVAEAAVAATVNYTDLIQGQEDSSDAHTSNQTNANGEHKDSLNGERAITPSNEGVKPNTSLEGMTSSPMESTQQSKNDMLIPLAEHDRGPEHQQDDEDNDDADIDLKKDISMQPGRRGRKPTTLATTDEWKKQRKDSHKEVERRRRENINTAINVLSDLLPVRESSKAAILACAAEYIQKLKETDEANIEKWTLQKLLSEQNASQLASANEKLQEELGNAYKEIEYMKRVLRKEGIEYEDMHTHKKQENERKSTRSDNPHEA
Method: protein-binding microarray
Molecule type: double-stranded DNA, one strand shown
Sample: in vitro
Tested at: 0.8 µM
Setting: whole 60-bp probe, no competitor
Reading: higher = stronger binding
Constant ends, left off below: … GTCTTGATTCGCTTGACGCTGCTG
Strand | fluorescence intensity
CTAGCCAGCCGGTGTAGCCACGTGTTAAATCTTTTC | 5140 a.u.
GAACACTCAATGTGTGGCGTGTGTGAATTTTAATAG | 526 a.u.
CTACTGTGATGTGCAGTGATGGCGAATAGGGTGTTC | 553 a.u.
GAATGTAACAGTAATCACGAATAGCAGCAGATTTAG | 542 a.u.
GAATGTGATTGTCGTCACCTTGCCATCCTCTCTTAG | 536 a.u.
CCTAACTACTATAGTCACGTGAAATAGCTTCGTACA | 15700 a.u.
GAAGAGAGCGGCTTACATCAGACATCTTTTCTCTAG | 510 a.u.
CTATACAGTACGTGTCATGCGGTTAGTATATATTTC | 720 a.u.

Series 2
Compound: NC(=O)c1cccc(-c2cc(Nc3ccc(OC(F)(F)F)cc3)ncn2)c1
Read-out: enzyme activity
Mode: inhibitor
Tested at: 0.5 µM
Reference: control
target | remaining activity [%]
Calcium/calmodulin-dependent protein kinase type 1B (PNCK, Homo sapiens, UniProt Q6P2M8) | 109
MAP/microtubule affinity-regulating kinase 4 (MARK4, Homo sapiens, UniProt Q96L34) | 98.1
Cyclin-dependent kinase 1, with cyclin A (CDK1, Homo sapiens, UniProt P06493) | 103
RAC-beta serine/threonine-protein kinase (AKT2, Homo sapiens, UniProt P31751) | 105
Rho-associated protein kinase 1 (ROCK1, Homo sapiens, UniProt Q13464) | 96.8
Mitogen-activated protein kinase 14 (MAPK14, Homo sapiens, UniProt Q16539) | 92
Cyclin-dependent kinase 9, with cyclin K (CDK9, Homo sapiens, UniProt P50750) | 106
Serine/threonine-protein kinase DCLK2 (DCLK2, Homo sapiens, UniProt Q8N568) | 104
Serine/threonine-protein kinase PLK3 (PLK3, Homo sapiens, UniProt Q9H4B4) | 96.9
Dual specificity protein kinase CLK3 (CLK3, Homo sapiens, UniProt P49761) | 104
Dual specificity mitogen-activated protein kinase kinase 1 (MAP2K1, Homo sapiens, UniProt Q02750) | 95.5
Dual specificity protein kinase CLK4 (CLK4, Homo sapiens, UniProt Q9HAZ1) | 97.8
Hepatocyte growth factor receptor (MET, Homo sapiens, UniProt P08581) | 135

Series 3
Target: RING finger protein unkempt homolog, zinc fingers 1-6, GST-SBP tag (UNK, Homo sapiens, UniProt Q9C0B0, residues 30-357)
Chain of UniProt Q9C0B0 (30-357, looked up): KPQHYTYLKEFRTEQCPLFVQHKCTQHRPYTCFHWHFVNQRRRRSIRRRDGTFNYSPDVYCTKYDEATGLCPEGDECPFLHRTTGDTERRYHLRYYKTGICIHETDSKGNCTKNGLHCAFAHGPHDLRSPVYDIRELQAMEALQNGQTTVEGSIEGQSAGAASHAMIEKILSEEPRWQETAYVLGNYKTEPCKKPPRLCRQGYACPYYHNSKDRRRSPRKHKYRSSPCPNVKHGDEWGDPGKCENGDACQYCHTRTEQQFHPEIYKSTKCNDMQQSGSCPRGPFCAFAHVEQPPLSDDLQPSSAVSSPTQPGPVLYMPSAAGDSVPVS
Method: RNA Bind-n-Seq
Molecule type: RNA
Sample: in vitro
Tested at: not given
Setting: RNA with constant flanks, ends assumed
Reference: input RNA pool
Reading: higher = stronger binding
Constant ends, left off below: GGGAGUUCUACAGUCCGACGAUC … CAACAGAGGAUUGAGCAUCA
Strand | bound/input enrichment [ratio]
AUUAAGCAGGCUCUUCCCCAGUACGUGUUUUCUGAGCCAUGCAUACCCUCUCCUUGGCCUCCGGUUUACUCUCAAGUGUUCCCUCUAUUCUCAUGCGUCCCACUUUGGGUCUGUACAAUC | 0.176
UCGGUACUUGAUUCAGCUCUUCAUCCACCACCCCGUGGACCUUUUCCUCCAGGAGAUAUUUUCCGUCAACCAGAAAGACCUUUUUUAGCUCCUGGAAGACAAAGCGUAGACAAUGUUACU | 0.178
AAACGCCGUUUCAGGAAGUUCCUGGUUUAUGUUGCCAACUUUGAUGAAAAAGAUCCCCGAACUUUCGAGGGUGUUGAUCCUAAGAAGACCUCCAUGAGAGAUGUGUAUAAGAAGUUUGAU | 0.199
GCAGUCCGCAGAACGGAAACUGGACGCAUUGGAUUAGAAGGCUGCCUUUGUCAAGAUUUUUACCGGAUAAGAGACCUUUUAUAUGAACAAUAUGCCAUUGUAUAAAGGACAUGAUGUCAA | 0.13
UAAAGAACUCUUCAGAAUUCCUGGUGUUUCAUCAUAUAUACGACUAAGAUAUCAACUCUUCCCGCUUGCUGUUUCUGGACCAAAAAAAAUGACGUCUAUUAUCAAAUUAACUACCCUUUC | 0.787
UAGCCUGAGUAUACAAUCAAGCUUCAGUGUGCAACCUUUUUUUCUUUUGCCAUUUUCUAUUUCCGUAAUUUCCUUGGGGAACUAAAUAAUUUUGCAGAAUUUUUCCUAAUUUUGUUUAUC | 0.784
GGCUUUGCUUUACUUUUUUACCUUGAACAACUGCUUGGAGGACCAGAGAUUUUCCCCGGAUUCUUAAAAGCUUAUGUUGAGAAGUUUUCCUAUAAGAGCAUAACUACUGAUGACUGGAAG | 0.217
UGUCACUGUGGGUAUAUCUUAUGCAUGUCAUUCAAUUGGUCAGAUUGGUUCUGUAUGGUUUUCCGUGGGCAUACAAACUAGUUAGUUCUUUUCACUUAAAUUUUAAAGGAGGAAGUUACC | 2.2

Series 4
SMILES: C[C@@H]1CN(c2cc(-c3n[nH]c4ccc(OC5(C)CC5)cc34)ncn2)C[C@H](C)O1
Read-out: cell-free assay
Method: competition with immobilised ligand
Tested at: 0.1 µM
target | remaining binding [%]
Macrophage colony-stimulating factor 1 receptor, autoinhibited (CSF1R, Homo sapiens, UniProt P07333) | 84
Tyrosine-protein kinase Blk (BLK, Homo sapiens, UniProt P51451) | 83
ALK tyrosine kinase receptor (ALK, Homo sapiens, UniProt Q9UM73, L1196M) | 78
Phosphatidylinositol 5-phosphate 4-kinase type-2 gamma (PIP4K2C, Homo sapiens, UniProt Q8TBX8) | 90
Cyclin-dependent kinase-like 5 (CDKL5, Homo sapiens, UniProt O76039) | 72
Tyrosine-protein kinase receptor UFO (AXL, Homo sapiens, UniProt P30530) | 100
Serine/threonine-protein kinase 32B (STK32B, Homo sapiens, UniProt Q9NY57) | 92
Interferon-induced, double-stranded RNA-activated protein kinase (EIF2AK2, Homo sapiens, UniProt P19525) | 100
Mast/stem cell growth factor receptor Kit (KIT, Homo sapiens, UniProt P10721, D816H) | 67
Serine/threonine-protein kinase OSR1 (OXSR1, Homo sapiens, UniProt O95747) | 72
Serine/threonine-protein kinase SIK2 (SIK2, Homo sapiens, UniProt Q9H0K1) | 87
Serine/threonine-protein kinase BRSK1 (BRSK1, Homo sapiens, UniProt Q8TDC3) | 96
Mitogen-activated protein kinase kinase kinase kinase 4 (MAP4K4, Homo sapiens, UniProt O95819) | 98
Proto-oncogene tyrosine-protein kinase Src (SRC, Homo sapiens, UniProt P12931) | 81
Insulin-like growth factor 1 receptor (IGF1R, Homo sapiens, UniProt P08069) | 100

Some of these lines once more (series 4):
target | remaining binding [%]
Tyrosine-protein kinase receptor UFO (AXL, Homo sapiens, UniProt P30530) | 100
Phosphatidylinositol 5-phosphate 4-kinase type-2 gamma (PIP4K2C, Homo sapiens, UniProt Q8TBX8) | 90
Serine/threonine-protein kinase OSR1 (OXSR1, Homo sapiens, UniProt O95747) | 72
Insulin-like growth factor 1 receptor (IGF1R, Homo sapiens, UniProt P08069) | 100
ALK tyrosine kinase receptor (ALK, Homo sapiens, UniProt Q9UM73, L1196M) | 78
Macrophage colony-stimulating factor 1 receptor, autoinhibited (CSF1R, Homo sapiens, UniProt P07333) | 84
Mitogen-activated protein kinase kinase kinase kinase 4 (MAP4K4, Homo sapiens, UniProt O95819) | 98
